Published values from different studies.
Every numbered part comes from another study and shows a few of its results, in no order.

Set 1
Target: Ras GTPase-activating protein-binding protein 1, RRM domain (G3BP1, Homo sapiens, UniProt Q13283)
Sequence of UniProt Q13283 (whole entry, looked up): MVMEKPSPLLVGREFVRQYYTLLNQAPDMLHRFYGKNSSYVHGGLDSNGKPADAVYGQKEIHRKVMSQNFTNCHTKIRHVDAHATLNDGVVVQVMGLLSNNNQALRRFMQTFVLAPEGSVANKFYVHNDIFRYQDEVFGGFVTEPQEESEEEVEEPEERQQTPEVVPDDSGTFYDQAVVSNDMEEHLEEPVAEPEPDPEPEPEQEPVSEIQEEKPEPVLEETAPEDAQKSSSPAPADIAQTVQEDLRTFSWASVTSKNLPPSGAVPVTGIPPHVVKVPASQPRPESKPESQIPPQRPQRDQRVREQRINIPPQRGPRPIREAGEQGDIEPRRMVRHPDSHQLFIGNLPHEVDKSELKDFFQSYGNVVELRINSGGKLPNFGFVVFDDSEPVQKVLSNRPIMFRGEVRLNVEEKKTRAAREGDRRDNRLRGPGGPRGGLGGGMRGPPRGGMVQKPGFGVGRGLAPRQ
Method: RNA Bind-n-Seq
Form: RNA
Sample: in vitro
Tested at: 1 µM
Setting: whole 134-nt RNA, ends assumed
With: 150 mM KCl
Reference: input library
Direction: higher = stronger binding
All sequences stand within: GGGAGUUCUACAGUCCGACGAUC … UGGAAUUCUCGGGUGUCAAGG
With `CUGUGCUACACAUCGUAUGUACCGAAUCGGGGUUUUUUGGGGUUUUUUGGGGUUUUUUGGGAAAGUAUUAUGUUACGCCGUUCGGAUCUG` the log2 enrichment was -0.132.
`UUACACAAACCUGCAGGUGAAGACAGGCCAGCGGACCCUCAUCAACCCCAAGCCCUGUGGCCAGUUUUGCUGCUGUGAAGUGCUGGGCUG` has a log2 enrichment of -0.25.
`CUCAAGUCCUGUGCUACACAUCGUAUGUACCGAAUCGGAAAGGAAAAAGGAGGAAAGUAUUAUGUUACGCCGUUCGGAUCUGCACUUCCA` has a log2 enrichment of -0.161.
With `UCCUGUGCUACACAUCGUAUGUACCGAAUCGGGGCCCCCGGGGCCCCCGGGCCCCCGGGGAAAGUAUUAUGUUACGCCGUUCGGAUCUGC` the log2 enrichment was -0.702.
`ACCAUGCAGGUGGGCAUCUUUGGGAAGUGGGGCAAGGGCGGGAUAGGGAGGGGGGUAACACUUUGGGAACAGGUGGUCCCAGGUCGUUUC` gave a log2 enrichment of -0.307.
For `UCCUGUGCUACACAUCGUAUGUACCGAAUCGGGUUUUUGGGGUUUUUGGGGUUUUUGGGGAAAGUAUUAUGUUACGCCGUUCGGAUCUGC`, the log2 enrichment was 0.243.
With `CAAGUCCUGUGCUACACAUCGUAUGUACCGAAUCGGAAAAGGAAAAGGAAAAGGGAAAGUAUUAUGUUACGCCGUUCGGAUCUGCACUUC` the log2 enrichment was -0.205.
The log2 enrichment of `AGUCCUGUGCUACACAUCGUAUGUACCGAAUCGGCCCCCGGCCCCCGGGGCCCCCGGAAAGUAUUAUGUUACGCCGUUCGGAUCUGCACU` is reported as -0.426.
For `CACAGACAACACGCACCCACACAGACACAGAGGGAAGGGGUUGGGAUGGGGAAAAGGUGCACAGCAGGGCGGGGUAGGACCCCAGCCCCU`, the log2 enrichment was -0.0192.
`GUCCUGUGCUACACAUCGUAUGUACCGAAUCGGGGUGGGGAAAAAGGGGUUUUUGGGGAAAGUAUUAUGUUACGCCGUUCGGAUCUGCAC` gave a log2 enrichment of 1.03.

Set 2
Target: Sal-like protein 4, full length isoform A (SALL4, Homo sapiens, UniProt Q9UJQ4, residues 1-1053)
Sequence of UniProt Q9UJQ4 (whole entry, looked up): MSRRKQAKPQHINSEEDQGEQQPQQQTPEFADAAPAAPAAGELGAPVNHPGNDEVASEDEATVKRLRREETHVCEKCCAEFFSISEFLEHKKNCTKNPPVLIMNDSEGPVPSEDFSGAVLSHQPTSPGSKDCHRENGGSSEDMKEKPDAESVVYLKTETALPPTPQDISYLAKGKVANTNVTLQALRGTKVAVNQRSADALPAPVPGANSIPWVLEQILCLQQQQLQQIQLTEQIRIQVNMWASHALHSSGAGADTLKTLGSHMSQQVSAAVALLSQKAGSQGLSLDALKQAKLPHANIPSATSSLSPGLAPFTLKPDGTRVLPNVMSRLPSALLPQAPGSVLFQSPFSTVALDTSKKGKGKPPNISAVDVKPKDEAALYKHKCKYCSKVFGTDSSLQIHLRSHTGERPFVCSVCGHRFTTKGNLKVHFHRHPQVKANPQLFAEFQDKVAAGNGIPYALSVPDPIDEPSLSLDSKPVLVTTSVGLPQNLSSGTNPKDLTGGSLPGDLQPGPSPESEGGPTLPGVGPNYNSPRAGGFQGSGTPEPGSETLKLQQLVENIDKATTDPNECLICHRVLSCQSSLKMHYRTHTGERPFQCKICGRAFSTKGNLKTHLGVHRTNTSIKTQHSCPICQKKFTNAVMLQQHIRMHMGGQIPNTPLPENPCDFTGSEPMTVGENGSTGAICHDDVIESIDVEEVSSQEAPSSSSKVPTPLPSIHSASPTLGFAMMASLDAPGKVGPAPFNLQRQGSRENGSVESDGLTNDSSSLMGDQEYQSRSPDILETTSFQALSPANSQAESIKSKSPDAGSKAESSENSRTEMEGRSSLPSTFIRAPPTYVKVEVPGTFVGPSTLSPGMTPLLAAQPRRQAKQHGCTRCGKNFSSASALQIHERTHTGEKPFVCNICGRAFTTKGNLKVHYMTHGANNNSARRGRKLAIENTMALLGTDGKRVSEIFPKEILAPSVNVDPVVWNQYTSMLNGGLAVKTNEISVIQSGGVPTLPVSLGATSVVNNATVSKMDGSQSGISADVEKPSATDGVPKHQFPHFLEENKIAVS
Method: universal PBM
Form: double-stranded DNA, one strand shown
Sample: in vitro
Tested at: 600 nM
Setting: 8-mer, flanks averaged, mean of replicates
Direction: higher = stronger binding
`AGACCAAC` gave an E-score of -0.0402.
The E-score of `ATGATGCG` is reported as 0.0478.
`CTCACTAA` gave an E-score of -0.0323.
For `AGATGCCC`, the E-score was -0.215.
`ACATAGCG` has an E-score of 0.15.
The E-score of `GCCGCGCA` is reported as -0.363.
With `CCTTCCTA` the E-score was -0.0981.
The E-score of `CTGAGGAC` is reported as -0.0901.
With `CCGCCTAC` the E-score was -0.167.
For `AACCATGG`, the E-score was -0.0495.
`GGATCACA` has an E-score of 0.0305.
For `TCGTTCAA`, the E-score was 0.189.
`ACTTGCTC` has an E-score of -0.0509.
With `ATATCCCA` the E-score was 0.25.
`AGGTCCAT` gave an E-score of 0.0946.
`AGACGAAT` gave an E-score of 0.18.
The E-score of `ACAGCACC` is reported as -0.258.
With `ATGATGGA` the E-score was 0.109.
For `ATGGAAAG`, the E-score was 0.182.
With `AGGTTATC` the E-score was 0.101.
With `AGTTGTGG` the E-score was 0.135.
`CGATGCAA` has an E-score of -0.109.
`ACTTACAC` has an E-score of 0.0739.
`TCCCTCGA` gave an E-score of -0.19.
`CGGCGTGA` gave an E-score of -0.253.

Set 3
Target: Histone acetyltransferase KAT6A, both winged helices, GST fusion (KAT6A, Homo sapiens, UniProt Q92794, residues 1-181)
Method: protein binding microarray
Form: double-stranded DNA, one strand shown
Sample: in vitro
Tested at: not given
Setting: 8-mer, flanks averaged, mean of 2 arrays, mostly near background
Reference: not given
Direction: higher = stronger binding
Target sequence (chain): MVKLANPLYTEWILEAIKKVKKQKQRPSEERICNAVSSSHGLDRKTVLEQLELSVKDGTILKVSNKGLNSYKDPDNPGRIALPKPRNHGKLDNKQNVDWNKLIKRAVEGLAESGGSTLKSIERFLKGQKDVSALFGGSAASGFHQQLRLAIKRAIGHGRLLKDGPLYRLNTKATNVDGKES
For `GCTCTTTA`, the E-score was 0.0274.
For `CCAAAGTA`, the E-score was -0.133.
For `GTAGCAAC`, the E-score was -0.0293.
`GTCCTCAC` has an E-score of -0.0905.
For `AAAAGGTG`, the E-score was -0.139.
`CGGACAAA` gave an E-score of 0.124.
`CCTGGATC` gave an E-score of -0.201.
`AGTACAGG` gave an E-score of -0.144.
`GGGATTAA` gave an E-score of -0.00128.
With `GCACAGGA` the E-score was 0.0457.
With `AGTATACT` the E-score was -0.239.
The E-score of `CATCTTCA` is reported as -0.177.
For `AACCAGCA`, the E-score was -0.155.
For `TCAACGGA`, the E-score was 0.186.
With `AATTGGCG` the E-score was 0.0389.
With `TAAAAATA` the E-score was -0.183.
With `CCGGGCAA` the E-score was 0.187.
The E-score of `ATCATGAG` is reported as -0.0306.
The E-score of `ATAGGAGG` is reported as -0.0665.
`CAAGCGCG` gave an E-score of 0.311.
With `CGACTCAC` the E-score was 0.00112.
The E-score of `CAGCCTAC` is reported as -0.064.
The E-score of `AGGTCCAT` is reported as -0.191.
For `TCTTGAAA`, the E-score was -0.0937.
With `GAACTGTA` the E-score was 0.113.

Set 4
Target: RING finger protein unkempt homolog, zinc fingers 1-6, GST-SBP tag (UNK, Homo sapiens, UniProt Q9C0B0, residues 30-357)
Sequence of UniProt Q9C0B0 (30-357, looked up): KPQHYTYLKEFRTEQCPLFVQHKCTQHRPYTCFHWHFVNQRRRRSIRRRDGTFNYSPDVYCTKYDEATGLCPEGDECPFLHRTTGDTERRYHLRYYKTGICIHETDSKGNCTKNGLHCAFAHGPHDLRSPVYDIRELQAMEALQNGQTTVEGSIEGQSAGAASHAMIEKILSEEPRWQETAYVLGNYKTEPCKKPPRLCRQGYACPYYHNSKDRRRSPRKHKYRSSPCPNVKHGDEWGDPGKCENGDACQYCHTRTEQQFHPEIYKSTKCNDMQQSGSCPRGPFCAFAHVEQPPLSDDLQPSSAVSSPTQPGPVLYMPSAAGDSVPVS
Method: RNA Bind-n-Seq
Form: RNA
Sample: in vitro
Tested at: not given
Setting: RNA with constant flanks, human-mouse chimeric sites, ends assumed
Reference: input RNA pool
Direction: higher = stronger binding
All sequences stand within: GGGAGUUCUACAGUCCGACGAUC … CAACAGAGGAUUGAGCAUCA
With `ACUCUUGACUCUUUCCAUCCUCUUCCUUUUCCUCUUGAUCUUCAAGGCCAUGAAUCCCAAAAUAACAGUCUUAGUGGCUAGCACCCAAACAGAGGUGGAAUAAAUCCACCCCAGUGUCUC` the bound/input enrichment was 0.629 ratio.
`UCUUAACUUAUUCAUUUAACUUAUUUUUAUAGCUAGAUAAAUAUUGUUAGUCUUAGACAAUAGCUCACAUCUUUACAGAAGCAUGCCCUCCCUAUCCAUUUGUCUUAUAACAUGACCCAG` has a bound/input enrichment of 6.33 ratio.
For `GCCACCAGAUCCCAGAAACAUGACCCUUGCUGCCUACAAAGAGAAGAUGAAGGAGCUCCCACUAGUGUCUCUGUUCUGCUCCUGCUUCCUGGCCGAUCCCCUGAAUAAGUCGUCCUACAA`, the bound/input enrichment was 1.01 ratio.
With `UGGCGCCUGCGCUCCCCACUCGUGUUUGUAUUUUUAUUUUUAUAAGAUACAUGUAUUUACAAUUGAGCUUUUGUUACAUAAUGCUGAAAUGCUACUGGAGAUUAUGAAAAAUGUUUCAAU` the bound/input enrichment was 0.232 ratio.
`AAAGAAUGGAUAGAGUGUGCACACGGGAUCGGUGGGACCCGGGCGAAAAAGGAGUGCAAGAUAGAGUUCGAUGACUUCGAAGAGUGCUUGCUUCGGCACAAAACGAUGAGGCGAAUGCAU` has a bound/input enrichment of 0.609 ratio.
For `GAUCAUGAACCACCAUCCAGAAAUGAAAUGAGAUUACCCAGACGAGCCAAAACAGCUGCGCUACAGAAAAGUAAACUUUAACCUUGCGAGUUCCUUAAUGAAGAUACAAGUUAAGAGAGC`, the bound/input enrichment was 0.214 ratio.
For `UCCUUGGACCCCAGUCAUAUAGGUGACCUGCAGAAAGCAGACACCAGUAGUCAAGGUGCUUUAGUGUUUCUCUCAAAGGACUACGAAAUAGAAAGUCAAAAUCCCCUGGCCUCUCCUACG`, the bound/input enrichment was 1.93 ratio.
With `GCAGGAUCUUCUAAGUACCAGUGGGGCAUUAUGAAAUCCCUUGGGCUCUCUGAUGACGACAUAGUGAAGUUUUCUGAAGCAGAGCACUGGCUUGAUUAUUUCCCGCCACUGGCCGUUCAG` the bound/input enrichment was 0.119 ratio.
`GGCCUGGGACCGUCCUGGCUAGUGCAAAAUAGCGGCAGUGGAGGCUCGAGAGGAAAGUUUGUUAGUGGAGGCAGUGGAGAGGUCGUCCAUGUACGGUCCUUUACUCGAUAGAUGUGUUCU` gave a bound/input enrichment of 0.873 ratio.
`AUAGAUGAAAUUGAUGUGGACCAGGAAGGAAUUGCUGAAAUGAUCCUGGAUGAAAAUGCUAUUGCUCAGGUCCCACGCCCUGGCACAUCUUUGAAGCUCCCUGGAACUAACCAAACAGGA` gave a bound/input enrichment of 0.338 ratio.
The bound/input enrichment of `GCACUUCUCAAAUACUGGCCAAAGACUCACAGUCCAAAAGAAGUAAUGUUCUUAAACGAAUUAGAAGAAAUUUUAGAUGUCAUUGAACCAUCAGAGUUUGUGAAGAUCAUGGAGCCUCUU` is reported as 0.684 ratio.

A few entries again (set 2):
For `ATGGAAAG`, the E-score was 0.182.
With `AGGTTATC` the E-score was 0.101.
With `AGTTGTGG` the E-score was 0.135.
`CGATGCAA` has an E-score of -0.109.
